Measured values from different studies.
Lines come from different studies, so protocols differ.

O=C1N=C(N2CCCCC2)S/C1=C/c1cccc(F)c1O — EC50 (NG108-cl; clomeleon fluorescence, item: intracellular chloride reduction; 5 h): inactive
C[C@H](Nc1ccc2c(c1)OCCn1cc(N3C(=O)OC[C@H]3C(F)F)nc1-2)C(N)=O — EC50 (HCC1954 PIK3CA H1047R; cell viability, ATP luminescence; 120 h): 40.8 nM
COc1cnc2cccc(N3CCc4c(cc(Cn5ccnc5C)cc4-c4cn(C)nc4C(F)(F)F)C3=O)c2c1 — EC50 (LS-123; cell growth, inhibitor; 120 h): 17600 nM
CCC(C)(C)C(=O)C(=O)N1CCCC[C@H]1C(=O)N[C@H](CCc1ccc(OC)cc1)C(=O)N1[C@@H]2CC[C@H]1C[C@H](Nc1nc(NCCc3sc(N)nc3C)nc(N3CCn4ncnc4C3)n1)C2 — EC50 (GFP-LC3 HeLa; GFP-LC3 puncta formation; together with: rapamycin 5 µM): 11500 nM
CCn1cc(-c2cc(Cn3ccnc3)cc3c2CCN([C@H](c2cc(OC)ccn2)C2CC2)C3=O)c(C(F)(F)F)n1 — EC50 (RERF-LC-MS; cell growth, inhibitor; 120 h): 9010 nM
C[C@]1(c2nc3c(C(N)=O)cccc3[nH]2)CCCN1 — EC50 (MEF PTEN+/-; cell proliferation, CellTiter-Glo; 168 h): > 10000 nM
CCn1cc(-c2cc(Cn3ccoc3=N)cc3c2CCN([C@@H](C)c2cc(OC)ccn2)C3=O)c(C(F)(F)F)n1 — EC50 (LS-123; cell growth, inhibitor; 120 h): 0.857 nM
OCCN(CCO)c1nc(N2CCCCC2)c2nc(N(CCO)CCO)nc(N3CCCCC3)c2n1 — EC50 (Jurkat T cells, FKBP12 knock-out; [3H]-thymidine incorporation, inhibitor; 3 h): 89.8 nM
O=C1N=C(N2CCN(c3ccccc3)CC2)S/C1=C\c1ccccc1O — EC50 (NG108-cl; clomeleon fluorescence, item: intracellular chloride reduction; 5 h): inactive
Cn1cc(-c2ccc(-c3cncc(Cl)c3N3CCC4(CCNC4=O)CC3)cc2)cn1 — log2 fold change (COLO 205; gene expression, microarray, item: STC1 mRNA; concentration not given, 6 h; reference: untreated cells): 2.14
CC(=O)N[C@@H](CSC(=O)[C@]1([C@@H](O)C(C)C)NC(=O)[C@H](C)[C@@H]1O)C(=O)O — EC50 (LDR; silenced CMV-GFP reporter derepression, qHTS): 2510 nM
Cc1nc(/C=C2\SC(N3CCCCC3)=NC2=O)c(C)s1 — EC50 (NG108-cl; clomeleon fluorescence, item: intracellular chloride reduction; 5 h): inactive
O=CC[C@H](O)[C@H](O)COP(=O)(O)O — log2 fold change (binding, MIDAS equilibrium dialysis LC-MS; A2AR-BRIL thermostabilized; concentration not given; reference: no-protein control): -0.111
C[C@]12CCCN1CC1=NNC(=O)c3cc(F)cc4[nH]c2c1c34 — EC50 (MEF PTEN+/-; cell proliferation, CellTiter-Glo; 168 h): 2900 nM
O=C(O)/C=C(/CC(=O)O)C(=O)O — log2 fold change (binding, MIDAS equilibrium dialysis LC-MS; A2AR-BRIL thermostabilized; concentration not given; reference: no-protein control): -0.189
O=C1N=C(N2CCCCC2)S/C1=C/c1cnccc1O — EC50 (NG108-cl; clomeleon fluorescence, item: intracellular chloride reduction; 5 h): inactive

Repeated from above:
C[C@]1(c2nc3c(C(N)=O)cccc3[nH]2)CCCN1 — EC50 (MEF PTEN+/-; cell proliferation, CellTiter-Glo; 168 h): > 10000 nM
